{"data": "Measured values from different studies", "note": "Every numbered part comes from another study and shows a few of its results, in no order."}
{"data": "Block 1", "target": "Histone acetyltransferase KAT6A, both winged helices, GST fusion (KAT6A, Homo sapiens, UniProt Q92794, residues 1-181)", "technique": "protein binding microarray", "form": "double-stranded DNA, one strand shown", "sample": "in vitro", "concentration": "not given", "setting": "8-mer, flanks averaged, mean of 2 arrays, mostly near background", "baseline": "not given", "reading": "higher = stronger binding", "Construct (chain)": "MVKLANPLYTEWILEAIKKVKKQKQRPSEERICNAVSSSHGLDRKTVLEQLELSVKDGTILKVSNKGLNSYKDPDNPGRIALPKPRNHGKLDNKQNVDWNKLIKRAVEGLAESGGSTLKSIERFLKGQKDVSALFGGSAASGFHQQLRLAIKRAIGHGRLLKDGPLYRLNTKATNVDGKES"}
{"Strand": "CAGACGAG", "E-score": -0.141}
{"Strand": "AACGTTAT", "E-score": -0.0149}
{"Strand": "AACAGATC", "E-score": -0.00945}
{"Strand": "AGTACCGG", "E-score": 0.118}
{"Strand": "AAGTGCAC", "E-score": -0.0508}
{"Strand": "GAGTGGTA", "E-score": -0.116}
{"Strand": "AAACTGGT", "E-score": -0.0376}
{"Strand": "CGGTAAAC", "E-score": 0.172}
{"data": "Block 2", "target": "Sal-like protein 4, full length isoform B (SALL4, Homo sapiens, UniProt Q9UJQ4-2, residues 1-616)", "technique": "universal PBM", "form": "double-stranded DNA, one strand shown", "sample": "in vitro", "concentration": "not given", "setting": "8-mer, flanks averaged, mean of replicates", "reading": "higher = stronger binding", "Residues (chain)": "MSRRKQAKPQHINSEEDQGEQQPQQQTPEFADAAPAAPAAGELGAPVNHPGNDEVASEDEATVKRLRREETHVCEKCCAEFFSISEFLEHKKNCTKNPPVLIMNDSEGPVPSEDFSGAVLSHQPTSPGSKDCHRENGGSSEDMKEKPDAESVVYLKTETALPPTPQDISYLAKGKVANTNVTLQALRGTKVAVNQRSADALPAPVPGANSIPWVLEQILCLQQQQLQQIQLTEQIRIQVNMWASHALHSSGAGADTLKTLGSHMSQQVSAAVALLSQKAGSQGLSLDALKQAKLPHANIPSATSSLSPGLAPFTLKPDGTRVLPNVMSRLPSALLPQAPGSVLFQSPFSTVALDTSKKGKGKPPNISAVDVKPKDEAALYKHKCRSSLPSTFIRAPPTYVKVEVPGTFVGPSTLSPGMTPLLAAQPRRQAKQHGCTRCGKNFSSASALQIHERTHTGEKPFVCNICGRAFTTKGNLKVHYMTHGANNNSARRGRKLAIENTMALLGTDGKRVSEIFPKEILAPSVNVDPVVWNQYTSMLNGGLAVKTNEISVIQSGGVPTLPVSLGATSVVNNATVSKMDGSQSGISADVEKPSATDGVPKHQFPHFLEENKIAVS"}
{"Strand": "ACCAGAAC", "E-score": -0.142}
{"Strand": "CAGGGGCA", "E-score": -0.166}
{"Strand": "ATGGAACC", "E-score": -0.0408}
{"Strand": "GTCCAGAC", "E-score": -0.285}
{"Strand": "TGGACGAA", "E-score": 0.154}
{"data": "Block 3", "target": "Prothrombin, mature alpha-thrombin (F2, Homo sapiens, UniProt P00734)", "technique": "aptamer microarray, sandwich", "form": "DNA with 2'F-ANA", "sample": "in vitro", "concentration": "200 nM", "setting": "whole 15-mer aptamer, many near background", "added": "Cy3 exosite-II aptamer, 400 nM", "reading": "higher = stronger binding", "strand": "GGTTGGTGTGGTTGG"}
{"Modification": "2'F-ANA at 5 6 8 11 13 14 15", "mean fluorescence intensity": "56.4 a.u."}
{"Modification": "2'F-ANA at 1 4 8 9 11 12 14", "mean fluorescence intensity": "56 a.u."}
{"Modification": "2'F-ANA at 1 3 4 5 7 8 9 10 11 12 13 15", "mean fluorescence intensity": "52.7 a.u."}
{"Modification": "2'F-ANA at 1 4 7 8 9 10", "mean fluorescence intensity": "52.2 a.u."}
{"Modification": "2'F-ANA at 6 9 10 11 14", "mean fluorescence intensity": "104 a.u."}
{"Modification": "2'F-ANA at 2 3 4 8 10 12", "mean fluorescence intensity": "415 a.u."}
{"data": "Mixed results"}
{"Molecule": "PhoQ, residues 284 288 289 292 302 303 AMDMFI", "target": "PhoP, residues 12 14 15 18 19 SEGLL (Escherichia coli, UniProt P23836)", "test": "Sort-seq, refers to: YFP reporter", "system": "E. coli", "setting": "PhoQ-PhoP variant library, added: 10 µM Mg2+", "scale": "baseline: high Mg2+ state, higher = stronger signaling", "quantity": "fold induction", "value": 1.13}
{"note": "For quick reference, copied from above (block 1):"}
{"Strand": "AGTACCGG", "E-score": 0.118}
{"Strand": "AAGTGCAC", "E-score": -0.0508}
{"Strand": "GAGTGGTA", "E-score": -0.116}
